Measured values from different studies.
Every numbered part comes from another study and shows a few of its results, in no order.

Study 1
Target: Prothrombin, mature alpha-thrombin (F2, Homo sapiens, UniProt P00734)
Technique: aptamer microarray, sandwich
Form: DNA with 2'F-ANA
Matrix: in vitro
Concentration: 200 nM
Notes: whole 15-mer aptamer, many near background
With: Cy3 exosite-II aptamer, 400 nM
Reading: higher = stronger binding
Strand: GGTTGGTGTGGTTGG
Modification | mean fluorescence intensity [a.u.]
2'F-ANA at 3 5 6 7 12 | 292
2'F-ANA at 2 4 6 10 12 15 | 111
2'F-ANA at 2 5 6 10 11 13 15 | 49.8
2'F-ANA at 2 3 4 6 7 10 13 15 | 203
2'F-ANA at 4 5 6 9 10 12 15 | 48.9
2'F-ANA at 4 6 7 8 10 11 13 14 15 | 54
2'F-ANA at 2 3 4 5 8 10 11 12 14 15 | 51.9
2'F-ANA at 3 4 6 9 11 14 | 241
2'F-ANA at 1 3 4 5 7 8 9 12 13 15 | 82.3
2'F-ANA at 2 3 4 5 7 9 10 12 15 | 62.2
2'F-ANA at 4 6 8 9 12 14 | 129
2'F-ANA at 1 2 8 10 11 | 51.3
2'F-ANA at 3 6 9 10 11 12 13 14 | 357
2'F-ANA at 3 4 6 11 12 14 | 356
2'F-ANA at 1 6 8 10 12 13 14 15 | 48
2'F-ANA at 7 10 11 13 15 | 147

Study 2
Target: RING finger protein unkempt homolog, zinc fingers 1-6, GST-SBP tag (UNK, Homo sapiens, UniProt Q9C0B0, residues 30-357)
Technique: RNA Bind-n-Seq
Form: RNA
Matrix: in vitro
Concentration: not given
Notes: RNA with constant flanks, human-mouse chimeric sites, ends assumed
Baseline: input RNA pool
Reading: higher = stronger binding
Shared flanks, not repeated: GGGAGUUCUACAGUCCGACGAUC … CAACAGAGGAUUGAGCAUCA
Residues (chain): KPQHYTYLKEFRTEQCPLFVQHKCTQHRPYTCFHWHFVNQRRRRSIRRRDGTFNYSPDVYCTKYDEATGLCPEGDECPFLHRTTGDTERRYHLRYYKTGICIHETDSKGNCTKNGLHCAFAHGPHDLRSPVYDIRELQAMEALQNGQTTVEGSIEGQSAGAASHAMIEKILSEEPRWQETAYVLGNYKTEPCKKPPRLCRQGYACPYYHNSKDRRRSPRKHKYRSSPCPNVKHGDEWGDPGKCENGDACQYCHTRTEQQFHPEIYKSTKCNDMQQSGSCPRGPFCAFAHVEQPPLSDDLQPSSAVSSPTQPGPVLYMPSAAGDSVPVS
Strand | bound/input enrichment
CCCCAAUACCAUUUGCAAGAGUUGGAAUGCACUCUCUUUUUUAAAAAACAUGUAUACAUUUUAGGGCUGUAGAUUUAUUUUCCUGGUUUCUUUUCCAAUUGCUGACUUUUGAGCACAGAA | 2.02 ratio
CAGCCUCAGAGCCCAGACUUCCUGGAUAUUACCAACCCUAAAGCGGUAUUAGAAAAUGCAUUGAGAAACUUCGCCUGUCUGACCACCGGAGAUGUGAUUGCUAUCAACUACAAUGAGAAG | 0.422 ratio
UUACCCGAAAAUGAAGAUGAGCUGGAGAGCACCAACAGGCGCUACACCAAGAGGGACUGCAGCACUUUCCUCAGAACUAGUGAGACGGGCAUUGUGGACCAGGUCAUGGUCACUCUCAAC | 0.158 ratio
GGAUUCCGCUUCCGGUUCCGUUGGGCUCGGUUCUCUCCUGAGCUACGUGUCUCUACGCUCUCAAUCCCGGUUGGGUAAAACAUGGAUCAGGUAAUGCAGUUUGUGGAGCCCAGCCGGCAG | 0.064 ratio
GAUAAGAAAAGCUUGUUGGAGACCCGCUUGCACAUCACUGGUAGAGACCUGAGGUGUCAAAUAGCUGAAACUUUCGGAUUUCAAGAAAAUUACAUCAAAAUUGUCAUAAAUAAGAAACAG | 0.474 ratio
UUUGUAUUUAUGCUAAGCACACGUGCUGGUGGUCUGGGCAUCAAUCUUGCGACUGCUGAUGUAGUAAUUUUAUAUGACUCAGAUUGGAAUCCGCAAGUUGAUCUUCAGGCUAUGGACCGU | 0.238 ratio
GUUCGGCUUUGGGAUCAUGCCACAAUGACAGAAGUGAAAUCUCUAAAUUUUAAUAUGUCUGUUAGCAGCAUGGAGUAUAUUCCUGAAGGAGAGAUUUUGGUUAUUACUUAUGGACGAUCU | 0.392 ratio
UACUACUGAAUCUGUGAUAUUGGCAAUUAUUAUUAUGGCCAGGGUCAUCCCAUGAAGCCUCAUAGAAUCCGGAUGACUCAUAACUUGCUGCUAAAUUAUGGCUUAUACCGAAAAAUGGAA | 0.226 ratio
CCCCACAACCAUUUGCAGGUCUGGAACUGCACUCUCUUUUUUAAAAAACAUGUAUACAUUUUAGGGCUGUAGACUUAUUUUCCUGGUUUUGUUUUUCAUUGCUGACUUUUGAGCACAGAA | 1.47 ratio
GAAUCCUACUCAGGCGGAUUUUGCAACACCAAGCUCACAGCAGCAGCUCCAUAGUCACAGUAGGGUAGUUUUGGGGCAAUAUUGCCAGGGUUUUAUUCACAUGCAGGUUUGGAAAAUGUA | 1.22 ratio
AUCAAAUACUUUGGGGACAUCAUUAGUGUGGGACAGAGACUGUUGCAAGGAGCUCGGAUCUUAGGGAUUCCAGUUAUUGUAACAGAACAAUACCCCAAAGGUCUUGGCAGCACCGUUCAA | 0.132 ratio

Study 3
Target: Sal-like protein 4, full length isoform B (SALL4, Homo sapiens, UniProt Q9UJQ4-2, residues 1-616)
Technique: universal PBM
Form: double-stranded DNA, one strand shown
Matrix: in vitro
Concentration: not given
Notes: 8-mer, flanks averaged, mean of replicates
Reading: higher = stronger binding
Strand | E-score
TGGCTTAA | 0.127
GCATCGCA | -0.186
CGGATTAC | -0.0112
ACGTGGAC | -0.15
AGTTGGCA | 0.0721
CCTCTATC | -0.0363
CAAAATCC | -0.0522
ACTGGAAA | 0.0282
AGACATTG | 0.042
GCCAATTA | 0.161
ACCCCCGA | 0.0811
CGGTCATC | -0.236
ACTCTCGC | -0.158
AAAGACCG | 0.00018
AATGATTG | 0.182
AGGCCACT | -0.15
ATCCGGAA | 0.071
CGCTCGCA | -0.233
AATAAGGG | 0.134
GTTAGGCA | 0.0519
GAATCTTA | 0.134
CGCTGGTA | -0.0801
CGGATTAG | -0.0371
TACATGTA | 0.243
TGGACCCA | 0.00353

Study 4
Target: Fragile X messenger ribonucleoprotein 1, C-terminal low-complexity region (Fmr1, Mus musculus, UniProt P35922)
Technique: RNA Bind-n-Seq
Form: RNA
Matrix: in vitro
Concentration: 200 nM
Notes: whole 134-nt RNA, ends assumed
With: 150 mM LiCl
Baseline: input library
Reading: higher = stronger binding
All molecules: 7-deaza-guanosine replaces G
Shared flanks, not repeated: GGGAGUUCUACAGUCCGACGAUC … UGGAAUUCUCGGGUGUCAAGG
Strand | log2 enrichment
UGGGAGGUGGAUUUUGUUUAUUUUUUUAGCUCAUUUCCAGGGGUGGGAAUUGUUUUUUAAUAUGUGUCAUGAAUAAAGUUGUUUUUGAAA | -0.264
CCUGUGCUACACAUCGUAUGUACCGAAUCGGGGAAAAAAAGGGGUUUGGGGAAAAAGGGGAAAGUAUUAUGUUACGCCGUUCGGAUCUGC | -1.49
GCAGGAAGUAAAAACAAAUGGAAAUGCUCCGGAUAGUGGCAGGGGUGGGGGUUGCUAAGGAAAGGGUGGGAUGGGAGUGGGUAAAGAGUU | 1.75
UGGGAGGUGGAUUUUGUUUAUUUUUUUAGCUCAUUUCCAGGGGUGGGAAUUUUUUUUUAAUAUGUGUCAUGAAUAAAGUUGUUUUUGAGA | 0.764
UUGUGAUUAAGAUUUGUUCUUUUUCUCCCCUCUCUAUAGGAAGAUGAUCCCUAUGAUCUUGAAGAUGUUUCUGCACAGAAAUGAGGGAAA | -0.0885
UUGCGAAAAGGACCAAUUCCAGUGCCGGAACGAGCGCUGCAUCCCCUCUGUGUGGAGAUGCGACGAGGACGAUGACUGCUUAGACCACAG | -0.477
AAGUCCUGUGCUACACAUCGUAUGUACCGAAUCGGGUUUUGGGGUUUUGGUUUUGGAAAGUAUUAUGUUACGCCGUUCGGAUCUGCACUU | -1.9
UCCUGUGCUACACAUCGUAUGUACCGAAUCGGCCCCCCGGGCCCCCCGGGCCCCCCGGGAAAGUAUUAUGUUACGCCGUUCGGAUCUGCA | -0.734
UGGCCCUGGUGGCAUGCGGGGAGGAAGAGGUGGCCUCAUGGAGCGUGGUGGUCCCGGUGGAAUGUUCAGAGGUGGCCGUGGUGGAGACAG | 0.363
AGUCCUGUGCUACACAUCGUAUGUACCGAAUCGGGUUUUUGGGAAAGGGAAAAAGGGAAAGUAUUAUGUUACGCCGUUCGGAUCUGCACU | -1.52
AAAUGGUAGUGUGCGGAGUUUUUUUUUCUUCCUUCUUUUAAAAAUGGUUGUUUAAGACUUUAACAAUGGGAACCCCUUGUGAGCAUGCUC | -1.84

Study 5
Target: Histone acetyltransferase KAT6A, winged helix 1, GST fusion (KAT6A, Homo sapiens, UniProt Q92794, residues 1-85)
Technique: protein binding microarray
Form: double-stranded DNA, one strand shown
Matrix: in vitro
Concentration: not given
Notes: 8-mer, flanks averaged, mean of 2 arrays, mostly near background
Baseline: not given
Reading: higher = stronger binding
Target sequence (chain): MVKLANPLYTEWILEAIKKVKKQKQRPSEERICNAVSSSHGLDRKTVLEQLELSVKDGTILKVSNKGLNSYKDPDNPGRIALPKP
Strand | E-score
TGATCTAA | -0.276
CGACGCCC | 0.328
ATTAAATA | -0.104
GATCCTGC | -0.0874
TAGATAAA | -0.168
CTACACAG | -0.149
TAGGCTAA | -0.152
GTTCCGCA | 0.177
GAGAGGTA | -0.13
AATACGTC | -0.0158
CCGGTCCA | 0.0901
AACATGAT | -0.0357
GATAGTCC | -0.158
CGCGGCAG | 0.413
AACGTTAT | -0.0769
AACCCCGT | 0.287
AGACCCAG | -0.205
CACCGGTA | 0.195
CTGTTTCC | -0.127
CTGACGTC | -0.124
AGAGTCCG | 0.0377
